Results gathered from unrelated publications.
Each numbered part is a random draw from the data of one study; scales do not carry over between parts. Several values in a cell are separate wells, animals, samples, runs or records.
Sequence of UniProt P00519 (whole entry, unmodified, looked up): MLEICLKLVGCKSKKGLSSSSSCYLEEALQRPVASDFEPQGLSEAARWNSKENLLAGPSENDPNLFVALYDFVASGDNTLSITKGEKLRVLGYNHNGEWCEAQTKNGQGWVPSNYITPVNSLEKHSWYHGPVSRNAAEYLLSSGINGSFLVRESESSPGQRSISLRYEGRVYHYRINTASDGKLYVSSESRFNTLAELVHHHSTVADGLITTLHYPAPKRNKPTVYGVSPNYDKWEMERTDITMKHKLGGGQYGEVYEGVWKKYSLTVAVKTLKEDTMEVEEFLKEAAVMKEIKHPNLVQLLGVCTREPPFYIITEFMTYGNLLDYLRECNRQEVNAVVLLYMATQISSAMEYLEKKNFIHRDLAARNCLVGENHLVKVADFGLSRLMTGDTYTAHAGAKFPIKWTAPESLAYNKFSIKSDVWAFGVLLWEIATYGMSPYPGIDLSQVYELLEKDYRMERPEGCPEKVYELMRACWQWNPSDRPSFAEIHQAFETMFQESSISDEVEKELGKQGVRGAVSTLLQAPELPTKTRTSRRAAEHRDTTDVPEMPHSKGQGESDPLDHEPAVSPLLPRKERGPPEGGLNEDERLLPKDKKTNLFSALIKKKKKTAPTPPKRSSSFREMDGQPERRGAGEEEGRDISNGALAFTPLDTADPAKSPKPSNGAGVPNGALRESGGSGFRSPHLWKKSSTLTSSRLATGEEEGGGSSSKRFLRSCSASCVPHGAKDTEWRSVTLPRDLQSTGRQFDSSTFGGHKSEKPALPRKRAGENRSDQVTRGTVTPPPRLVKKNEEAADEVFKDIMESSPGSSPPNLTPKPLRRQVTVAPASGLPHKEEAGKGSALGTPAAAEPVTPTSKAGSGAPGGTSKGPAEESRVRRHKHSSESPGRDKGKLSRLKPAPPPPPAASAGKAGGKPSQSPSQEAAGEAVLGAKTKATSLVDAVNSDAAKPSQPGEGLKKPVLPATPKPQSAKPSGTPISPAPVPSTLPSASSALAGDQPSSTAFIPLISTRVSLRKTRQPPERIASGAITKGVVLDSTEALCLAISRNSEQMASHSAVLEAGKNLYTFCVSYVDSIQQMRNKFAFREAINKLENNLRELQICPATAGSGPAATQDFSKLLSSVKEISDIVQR
Sequence of UniProt Q13557 (whole entry, looked up): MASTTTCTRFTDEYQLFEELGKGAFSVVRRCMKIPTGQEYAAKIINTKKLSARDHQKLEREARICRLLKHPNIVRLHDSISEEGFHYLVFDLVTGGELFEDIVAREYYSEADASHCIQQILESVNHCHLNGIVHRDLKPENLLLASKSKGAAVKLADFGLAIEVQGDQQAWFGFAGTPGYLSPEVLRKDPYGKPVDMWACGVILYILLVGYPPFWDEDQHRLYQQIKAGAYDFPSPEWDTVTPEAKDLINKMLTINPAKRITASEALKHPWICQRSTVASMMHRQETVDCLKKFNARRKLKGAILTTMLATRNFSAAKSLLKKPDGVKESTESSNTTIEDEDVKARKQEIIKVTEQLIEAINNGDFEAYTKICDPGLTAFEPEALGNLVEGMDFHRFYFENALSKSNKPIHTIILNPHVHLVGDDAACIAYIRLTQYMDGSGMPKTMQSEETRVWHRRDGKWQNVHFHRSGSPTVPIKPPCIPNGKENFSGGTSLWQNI
Sequence of UniProt P45983 (whole entry, looked up): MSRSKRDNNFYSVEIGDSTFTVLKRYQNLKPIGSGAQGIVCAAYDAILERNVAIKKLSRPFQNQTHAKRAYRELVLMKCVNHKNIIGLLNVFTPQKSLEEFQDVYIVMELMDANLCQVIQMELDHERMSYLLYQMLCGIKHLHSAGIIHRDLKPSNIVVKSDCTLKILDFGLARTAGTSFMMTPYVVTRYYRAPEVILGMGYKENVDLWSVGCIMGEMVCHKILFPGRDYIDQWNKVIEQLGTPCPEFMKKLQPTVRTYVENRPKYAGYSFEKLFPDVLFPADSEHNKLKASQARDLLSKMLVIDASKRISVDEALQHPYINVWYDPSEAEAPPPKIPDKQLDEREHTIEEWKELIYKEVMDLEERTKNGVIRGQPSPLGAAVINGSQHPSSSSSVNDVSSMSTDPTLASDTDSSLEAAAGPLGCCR

Sample 1
Structure (SMILES): CCOc1ccc2nc(Sc3nc(Nc4ccc(I)cc4)nc(N4CCOCC4)n3)sc2c1
Target: 1-phosphatidylinositol 3-phosphate 5-kinase (PIKFYVE, Homo sapiens, UniProt Q9Y2I7)
Sequence of UniProt Q9Y2I7 (whole entry, looked up): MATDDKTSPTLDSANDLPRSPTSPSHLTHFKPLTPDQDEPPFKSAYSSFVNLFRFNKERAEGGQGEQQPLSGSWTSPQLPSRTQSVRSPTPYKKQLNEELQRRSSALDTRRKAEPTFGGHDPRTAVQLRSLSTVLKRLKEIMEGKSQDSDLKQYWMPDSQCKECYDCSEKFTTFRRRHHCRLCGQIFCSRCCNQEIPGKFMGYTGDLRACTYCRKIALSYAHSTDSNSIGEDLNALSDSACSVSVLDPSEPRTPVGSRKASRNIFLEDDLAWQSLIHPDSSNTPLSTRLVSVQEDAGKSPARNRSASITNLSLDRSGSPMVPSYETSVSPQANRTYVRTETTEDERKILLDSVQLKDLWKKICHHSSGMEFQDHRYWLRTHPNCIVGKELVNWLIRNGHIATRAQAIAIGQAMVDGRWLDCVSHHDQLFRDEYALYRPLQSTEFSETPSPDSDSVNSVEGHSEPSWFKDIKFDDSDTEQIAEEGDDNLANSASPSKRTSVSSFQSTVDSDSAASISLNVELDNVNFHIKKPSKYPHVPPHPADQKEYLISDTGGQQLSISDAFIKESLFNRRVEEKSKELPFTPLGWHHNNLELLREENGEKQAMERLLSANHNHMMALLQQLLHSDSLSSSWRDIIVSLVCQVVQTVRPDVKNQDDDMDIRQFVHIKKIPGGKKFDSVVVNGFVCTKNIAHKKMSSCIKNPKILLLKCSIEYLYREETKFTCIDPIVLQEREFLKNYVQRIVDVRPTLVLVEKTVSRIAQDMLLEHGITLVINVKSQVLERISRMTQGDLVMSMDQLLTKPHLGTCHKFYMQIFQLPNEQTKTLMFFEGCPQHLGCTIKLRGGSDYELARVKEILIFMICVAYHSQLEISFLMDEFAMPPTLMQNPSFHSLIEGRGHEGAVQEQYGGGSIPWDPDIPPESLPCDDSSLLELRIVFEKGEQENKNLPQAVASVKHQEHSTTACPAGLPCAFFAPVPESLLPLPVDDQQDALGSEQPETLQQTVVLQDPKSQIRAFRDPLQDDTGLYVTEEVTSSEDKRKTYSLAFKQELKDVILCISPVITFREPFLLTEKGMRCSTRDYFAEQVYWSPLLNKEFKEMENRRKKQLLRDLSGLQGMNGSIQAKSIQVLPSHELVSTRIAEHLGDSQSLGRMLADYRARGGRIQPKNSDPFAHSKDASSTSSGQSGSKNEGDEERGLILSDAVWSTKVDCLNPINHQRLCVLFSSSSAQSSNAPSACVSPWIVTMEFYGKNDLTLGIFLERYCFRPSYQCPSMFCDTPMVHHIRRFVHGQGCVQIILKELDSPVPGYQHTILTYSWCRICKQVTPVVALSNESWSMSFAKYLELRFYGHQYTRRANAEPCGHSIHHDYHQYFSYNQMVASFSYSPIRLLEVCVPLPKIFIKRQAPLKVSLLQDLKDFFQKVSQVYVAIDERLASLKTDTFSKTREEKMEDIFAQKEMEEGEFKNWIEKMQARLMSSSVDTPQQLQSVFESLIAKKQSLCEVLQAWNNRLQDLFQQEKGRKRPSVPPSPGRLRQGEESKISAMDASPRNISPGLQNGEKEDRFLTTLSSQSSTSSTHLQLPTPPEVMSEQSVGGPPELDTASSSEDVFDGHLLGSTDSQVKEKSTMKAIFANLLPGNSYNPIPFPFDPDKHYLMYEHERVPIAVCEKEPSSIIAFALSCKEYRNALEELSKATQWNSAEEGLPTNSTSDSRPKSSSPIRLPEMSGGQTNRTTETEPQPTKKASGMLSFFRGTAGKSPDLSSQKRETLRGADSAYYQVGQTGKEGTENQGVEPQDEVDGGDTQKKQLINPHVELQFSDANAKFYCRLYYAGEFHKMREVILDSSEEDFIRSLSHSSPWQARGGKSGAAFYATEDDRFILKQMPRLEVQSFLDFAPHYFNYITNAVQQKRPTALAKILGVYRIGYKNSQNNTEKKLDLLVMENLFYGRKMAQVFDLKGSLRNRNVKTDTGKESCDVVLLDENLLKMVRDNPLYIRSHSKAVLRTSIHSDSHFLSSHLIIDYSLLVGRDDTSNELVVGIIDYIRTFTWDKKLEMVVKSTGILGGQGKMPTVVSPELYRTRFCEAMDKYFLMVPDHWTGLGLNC
Method: KINOMEscan
Notes: unit not given
Baseline: DMSO
concentration | remaining binding
0.503 nM | 0.853 and 0.744
370 nM | 0.0769 and 0.075
4.53 nM | 0.93 and 0.853
123 nM | 0.209 and 0.191
4.57 nM | 0.876 and 0.838
3300 nM | 0.00686 and 0.00481
13.6 nM | 0.688 and 0.682
40.7 nM | 0.462 and 0.438

Sample 2
SMILES: CN(C1COC1)C(C)(C)/C=C(\C#N)C(=O)N1CCC[C@H]1Cn1nc(-c2ccc(Oc3ccccc3)cc2F)c2c(N)ncnc21
Read-out: kinase activity
NEK6: Serine/threonine-protein kinase Nek6 (NEK6, Homo sapiens, UniProt Q9HC98)
Sequence of UniProt Q9HC98 (whole entry, looked up): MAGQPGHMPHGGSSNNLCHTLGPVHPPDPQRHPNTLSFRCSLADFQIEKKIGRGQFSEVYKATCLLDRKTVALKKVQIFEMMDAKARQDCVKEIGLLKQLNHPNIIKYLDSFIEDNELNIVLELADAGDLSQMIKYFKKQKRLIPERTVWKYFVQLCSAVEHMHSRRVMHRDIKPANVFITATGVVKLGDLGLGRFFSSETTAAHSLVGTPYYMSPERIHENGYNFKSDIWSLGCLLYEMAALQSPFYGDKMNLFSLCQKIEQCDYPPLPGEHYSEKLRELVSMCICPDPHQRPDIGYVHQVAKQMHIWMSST
target | concentration | inhibition [%]
MKNK1 (Homo sapiens, UniProt Q9BUB5) | 1 µM | 5
RAF1 (Homo sapiens, UniProt P04049) | 0.1 µM | -1
DYRK1B (Homo sapiens, UniProt Q9Y463) | 0.1 µM | -6
DYRK1A (Homo sapiens, UniProt Q13627) | 1 µM | -2
CLK1 (Homo sapiens, UniProt P49759) | 0.1 µM | 2
JAK3 (Homo sapiens, UniProt P52333) | 0.1 µM | -2
MAPK13 (Homo sapiens, UniProt O15264) | 1 µM | -7
EPHA8 (Homo sapiens, UniProt P29322) | 0.1 µM | 7
FGFR4 (Homo sapiens, UniProt P22455) | 1 µM | 3
CAMK2D (Homo sapiens, UniProt Q13557) | 1 µM | 7
NEK6 | 1 µM | 0
MAPKAPK2 (Homo sapiens, UniProt P49137) | 0.1 µM | 7
RPS6KB1 (Homo sapiens, UniProt P23443) | 1 µM | 4
NEK6 | 0.1 µM | 5
PAK4 (Homo sapiens, UniProt O96013) | 1 µM | -7
DCLK2 (Homo sapiens, UniProt Q8N568) | 0.1 µM | 2
MARK3 (Homo sapiens, UniProt P27448) | 0.1 µM | 4
ABL1 (Homo sapiens, UniProt P00519) | 0.1 µM | -1

Sample 3
SMILES: CCC1(c2cccc(-c3cn(C)nc3C)c2)C2=C(Nc3n[nH]cc31)C(F)C(C)(C)CC2=O (single isomer, unassigned)
Concentration: 1 µM
target | read-out | method | baseline | remaining binding
MAPK8 (Homo sapiens, UniProt P45983) | binding | competition with immobilised ligand |  | 94%
PIKFYVE (Homo sapiens, UniProt Q9Y2I7) | binding | competition with immobilised ligand |  | 93%
EGFR (Homo sapiens, UniProt P00533, del752-759) | binding | competition with immobilised ligand |  | 99%
MAP2K7 (Homo sapiens, UniProt O14733) | binding | competition with immobilised ligand |  | 88%
FLT3 (Homo sapiens, UniProt P36888, K663Q) | kinase binding | KINOMEscan | DMSO control | 94%
EGFR (Homo sapiens, UniProt P00533, L861Q) | kinase binding | KINOMEscan | DMSO control | 100%
CAMK2D (Homo sapiens, UniProt Q13557) | kinase binding | KINOMEscan | DMSO control | 100%
HUNK (Homo sapiens, UniProt P57058) | binding | competition with immobilised ligand |  | 76%
PAK2 (Homo sapiens, UniProt Q13177) | binding | competition with immobilised ligand |  | 100%
SLK (Homo sapiens, UniProt Q9H2G2) | binding | competition with immobilised ligand |  | 100%
CDK9 (Homo sapiens, UniProt P50750) | kinase binding | KINOMEscan | DMSO control | 100%
PI4KB (Homo sapiens, UniProt Q9UBF8) | kinase binding | KINOMEscan | DMSO control | 100%
ULK3 (Homo sapiens, UniProt Q6PHR2) | binding | competition with immobilised ligand |  | 91%
EIF2AK2 (Homo sapiens, UniProt P19525) | kinase binding | KINOMEscan | DMSO control | 100%
Tyrosine-protein kinase ABL1, non-phosphorylated (ABL1, Homo sapiens, UniProt P00519, F317L) | kinase binding | KINOMEscan | DMSO control | 100%
FGR (Homo sapiens, UniProt P09769) | kinase binding | KINOMEscan | DMSO control | 100%
BRAF (Homo sapiens, UniProt P15056, V600E) | kinase binding | KINOMEscan | DMSO control | 100%
RET (Homo sapiens, UniProt P07949, V804M) | binding | competition with immobilised ligand |  | 89%
FRK (Homo sapiens, UniProt P42685) | kinase binding | KINOMEscan | DMSO control | 100%

Sample 4
Compound: COCC1CC2C(CCC3(C)C(O)CCC23)c2ccc(O)cc21 (centres unmarked)
Method: DNA microarray
Baseline: untreated cells
cell line | measured | concentration | notes | mRNA level ratio
PANC-1 | ADAMTS8 | concentration not given | higher dose arm | 0.808
A549 | ORC1L | 50 µM |  | 0.693
A549 | CDCA8 | 50 µM |  | 0.766
A549 | CALR3 | 100 µM |  | 1.97
SK-OV-3 | RFC3 | concentration not given | lower dose arm | 1.07
A549 | CDC25B | 50 µM |  | 1.2
A549 | IL28A | 100 µM |  | 3.25
A549 | IL20RA | 100 µM |  | 12.2
PANC-1 | CCL22 | concentration not given | lower dose arm | 1
A549 | MCM6 | 100 µM |  | 0.674
PANC-1 | ISG20L1 | concentration not given | higher dose arm | 0.819
SK-OV-3 | CDC25B | concentration not given | higher dose arm | 1.21
PANC-1 | GTSE1 | concentration not given | higher dose arm | 0.419
PANC-1 | GADD45A | concentration not given | higher dose arm | 1.28

Sample 5
SMILES: CCN1/C(=C/C=C2\CCCC(/C=C/C3=[N+](CC)c4ccccc4C3(C)C)=C2NCCCCCCCCN2CCC(Nc3nc4ccccc4n3Cc3ccc(F)cc3)CC2)C(C)(C)c2ccccc21
Cell line: U-87 MG
Concentration: concentration not given
Baseline: DMSO
measured | log2 fold change
ERICH2 mRNA | 1.82
CEP55 mRNA | -1.68
DDIT4L mRNA | -2.5
LRRC34 mRNA | -1.04
GNA13 mRNA | 0.979
UST mRNA | 1.32
NIPSNAP3A mRNA | -0.946
TCTN2 mRNA | -1.28
JUN mRNA | 0.922
GK mRNA | 1.61
RNF182 mRNA | -1.39
GAS2L1 mRNA | -1.01
RIPK4 mRNA | -1.36
RWDD2A mRNA | 1.71
ANP32E mRNA | -1.41
ACTA2 mRNA | -2.02

Sample 6
Compound: CC(C)C[C@@H]1NC(=O)[C@@H](N(C)C(=O)[C@@H](NC(=O)[C@@H]2C[C@@H](F)CN2C(=O)C2(C(F)(F)F)CC(F)(F)C2)C2CC2)CCCCCCCN(C)C(=O)[C@H](Cc2cc(Cl)cnc2OC2CC2)N(C)C1=O
Route: oral
host | dose | time | tumour volume
NSG mice, sample B SCLC PDX | 100 mg/kg twice daily | day 12 | 184 mm3 and 223 mm3 and 206 mm3 and 300 mm3 and 214 mm3
NSG mice, sample B SCLC PDX | 100 mg/kg twice daily | day 26 | 214 mm3 and 236 mm3 and 226 mm3 and 221 mm3 and 258 mm3
mouse, sample A SCLC PDX | 100 mg/kg three times daily | day 0 | 140 mm3 and 158 mm3 and 205 mm3 and 115 mm3 and 162 mm3
NSG mice, sample B SCLC PDX | 100 mg/kg twice daily | day 5 | 174 mm3 and 292 mm3 and 188 mm3 and 202 mm3 and 211 mm3
mouse, sample A SCLC PDX | 100 mg/kg three times daily | day 7 | 115 mm3 and 218 mm3 and 140 mm3 and 125 mm3 and 198 mm3
mouse, sample A SCLC PDX | 100 mg/kg three times daily | day 18 | 291 mm3 and 162 mm3 and 160 mm3 and 150 mm3

Sample 7
SMILES: CCN(CC)CC(=O)N1CCN(c2nc(NCc3nc4cc(Cl)c(Cl)cc4[nH]3)c3ncn(CC)c3n2)CC1
Read-out: cell viability
Method: CellCounting-Lite
Temperature: 37 °C
Direction: higher = more viable cells
cell line | concentration | luminescence signal
MDA-MB-231 | 1.953 nM | 69700 a.u. and 71800 a.u. and 63500 a.u.
MDA-MB-468 | 0.4883 nM | 35700 a.u. and 37800 a.u. and 40300 a.u.
MDA-MB-468 | 31.25 nM | 10300 a.u. and 10400 a.u. and 10100 a.u.
MDA-MB-231 | 0.03052 nM | 474000 a.u. and 447000 a.u. and 458000 a.u.
MDA-MB-231 | 125 nM | 6760 a.u. and 6540 a.u. and 7910 a.u.
MDA-MB-231 | 7.812 nM | 9360 a.u. and 8320 a.u. and 8000 a.u.

Further values, each from its own experiment
PKMYT1: Membrane-associated tyrosine- and threonine-specific cdc2-inhibitory kinase (PKMYT1, Homo sapiens, UniProt Q99640)
Sequence of UniProt Q99640 (whole entry, looked up): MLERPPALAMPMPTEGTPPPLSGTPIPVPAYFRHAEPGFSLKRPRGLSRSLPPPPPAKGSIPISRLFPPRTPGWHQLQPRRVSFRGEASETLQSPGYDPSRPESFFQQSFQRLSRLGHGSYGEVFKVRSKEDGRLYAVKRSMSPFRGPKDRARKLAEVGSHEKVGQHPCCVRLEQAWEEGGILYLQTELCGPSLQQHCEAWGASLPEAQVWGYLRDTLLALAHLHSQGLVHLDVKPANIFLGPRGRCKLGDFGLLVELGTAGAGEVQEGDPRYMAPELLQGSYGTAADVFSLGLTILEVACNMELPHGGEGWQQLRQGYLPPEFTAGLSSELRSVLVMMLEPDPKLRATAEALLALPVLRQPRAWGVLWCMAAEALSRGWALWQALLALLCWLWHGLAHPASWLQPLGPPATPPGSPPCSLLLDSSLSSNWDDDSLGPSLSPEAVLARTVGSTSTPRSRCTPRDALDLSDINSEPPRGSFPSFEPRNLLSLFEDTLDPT
Structure (SMILES) | target or system | assay | test system | conditions | quantity | value
Cc1ncsc1-c1ccc(C(CO)NC(=O)C2CC(O)CN2C(=O)C(NC(=O)c2ccc(COc3c(-c4c(C)c(F)cc5[nH]ncc45)c(C4CC4)cc4c(N5CC6CC5CN6)nc(OC5CCOCC5)nc34)cc2)C(C)C)cc1 (centres unmarked) | von Hippel-Lindau disease tumor suppressor, with Elongin B/C (VHL, Homo sapiens, UniProt P40337) | SPR, single-cycle | immobilized VCB complex | binary, geometric mean | Kd | 113 nM
Cc1ccc(O)c(C)c1-c1cnc2[nH]c(-c3cnc(N4CCC5(CC4)CC(N4CCN(c6ccc7c(c6)C(=O)N(C6CCC(=O)NC6=O)C7=O)CC4)CO5)nc3)cc2c1C#N (mixture of isomers) | PKMYT1 | binding, HTRF |  | 4.12 nM | inhibition | 45.2% and 40.9%
Cc1ncsc1-c1ccc(C2(NC(=O)C3CC(O)CN3C(=O)C(NC(=O)c3ccc(COc4c(-c5c(C)c(F)cc6[nH]ncc56)c(C5CC5)cc5c(N6CC7CC6CN7)nc(OC6CCOCC6)nc45)cc3)C(C)C)CC2)cc1 (centres unmarked) | AsPC-1 | in-cell ELISA |  | 1 nM, individual replicates | phospho-ERK1/2 level | 104% and 101% and 88.8% and 97.4% and 99.7% and 89.9%
Cc1ccc(O)c(C)c1-c1cnc2[nH]c(-c3cnc(N)nc3)cc2c1C#N | PKMYT1 | degrader, automated immunoblot | HCC1569 | 12.35 nM | degradation | -24.7%
Cc1ncsc1-c1ccc(C2(NC(=O)C3CC(O)CN3C(=O)C(NC(=O)c3ccc(COc4c(-c5c(C)c(F)cc6[nH]ncc56)c(C5CC5)cc5c(N6CC7CC6CN7)nc(OC6CCOCC6)nc45)cc3)C(C)(C)C)CC2)cc1 (centres unmarked) | AsPC-1 | in-cell ELISA |  | 10 µM, individual replicates | phospho-ERK1/2 level | 11.3% and 10.5% and 11.5% and 13.9% and 12.3% and 13.1%
Cc1ncc(-c2cc3c(C#N)c(-c4c(C)ccc(O)c4C)cnc3[nH]2)cn1 | PKMYT1 | cell-free assay, TR-FRET |  | 1.111 µM | inhibition | 102%
Cc1ncsc1-c1ccc(C(CO)NC(=O)C2CC(O)CN2C(=O)C(C(C)C)n2cc(-c3ccc(COc4c(-c5c(C)c(F)cc6[nH]ncc56)c(C5CC5)cc5c(N6CC7CC6CN7)nc(OC6CCOCC6)nc45)cc3)nn2)cc1 (centres unmarked) | AsPC-1 | in-cell ELISA, measured: phospho-ERK1/2 |  | 100 nM | ERK1/2 phosphorylation | 9.32% and 18% and 9.02%
Cc1ccc(O)c(C)c1-c1cnc2[nH]c(-c3cnc(N4CCC(CN5CCN(c6ccc7c(c6)C(=O)N(C6CCC(=O)NC6=O)C7=O)CC5)CC4)nc3)cc2c1C#N (centres unmarked) | PKMYT1 | immunoblotting | HCC1569 | 1 µM, 2 h | remaining protein level | 33%

Repeated from above (sample 3):
target | read-out | method | baseline | remaining binding
MAPK8 (Homo sapiens, UniProt P45983) | binding | competition with immobilised ligand |  | 94%
PIKFYVE (Homo sapiens, UniProt Q9Y2I7) | binding | competition with immobilised ligand |  | 93%
EGFR (Homo sapiens, UniProt P00533, del752-759) | binding | competition with immobilised ligand |  | 99%
MAP2K7 (Homo sapiens, UniProt O14733) | binding | competition with immobilised ligand |  | 88%
FLT3 (Homo sapiens, UniProt P36888, K663Q) | kinase binding | KINOMEscan | DMSO control | 94%
EGFR (Homo sapiens, UniProt P00533, L861Q) | kinase binding | KINOMEscan | DMSO control | 100%
CAMK2D (Homo sapiens, UniProt Q13557) | kinase binding | KINOMEscan | DMSO control | 100%
HUNK (Homo sapiens, UniProt P57058) | binding | competition with immobilised ligand |  | 76%
PAK2 (Homo sapiens, UniProt Q13177) | binding | competition with immobilised ligand |  | 100%
SLK (Homo sapiens, UniProt Q9H2G2) | binding | competition with immobilised ligand |  | 100%
CDK9 (Homo sapiens, UniProt P50750) | kinase binding | KINOMEscan | DMSO control | 100%
PI4KB (Homo sapiens, UniProt Q9UBF8) | kinase binding | KINOMEscan | DMSO control | 100%
